{"data": "Assay results collected from several papers", "note": "A part holds a random share of what one study measured."}
{"data": "Study 1", "target": "Histone acetyltransferase KAT6A, winged helix 1, GST fusion (KAT6A, Homo sapiens, UniProt Q92794, residues 1-85)", "method": "protein binding microarray", "molecule type": "double-stranded DNA, one strand shown", "medium": "in vitro", "concentration": "not given", "setting": "8-mer, flanks averaged, mean of 2 arrays, mostly near background", "reference": "not given", "direction": "higher = stronger binding", "Residues (chain)": "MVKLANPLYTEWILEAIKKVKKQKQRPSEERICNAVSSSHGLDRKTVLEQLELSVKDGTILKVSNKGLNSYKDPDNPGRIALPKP"}
{"Sequence": "AAGTGCCG", "E-score": 0.194}
{"Sequence": "GCTCTGAC", "E-score": -0.0397}
{"Sequence": "ACTTAGCT", "E-score": -0.133}
{"Sequence": "GTATTAAC", "E-score": 0.0338}
{"Sequence": "ACTGCATC", "E-score": -0.248}
{"Sequence": "CCTTGCCA", "E-score": -0.157}
{"data": "Study 2", "target": "Interferon regulatory factor 5, full length, phosphomimetic (IRF5, Homo sapiens, UniProt Q13568-2, residues 1-514, K96S/S451D/S453D/S456D/S462D)", "method": "protein-binding microarray", "molecule type": "double-stranded DNA, one strand shown", "medium": "in vitro", "concentration": "250 nM", "setting": "60-bp whole probe", "together with": "salmon DNA 0.4 mg/ml", "reference": "random background probes", "direction": "higher = stronger binding", "shared flanks, not repeated": "GCCTAGCAC … GTCTTGATTCGCTTGACGCTGCTG"}
{"Sequence": "GACGGACCGGGACTGGGGACGTGCTAG", "log fluorescence": "-0.729 z-score"}
{"Sequence": "GACGGACTGCGTTTCCTGACGTGCTAG", "log fluorescence": "-0.542 z-score"}
{"Sequence": "GACGGTGTCCTTATCCTGACGTGCTAG", "log fluorescence": "-0.29 z-score"}
{"Sequence": "AAGTAAAATGCAAAGAGGAAGTGCTAG", "log fluorescence": "0.0623 z-score"}
{"Sequence": "TGAGGTATCCTTCTCCTTTAGTGCTAG", "log fluorescence": "0.218 z-score"}
{"Sequence": "TTAGGTATCGACACTGGTTTAGTGCTA", "log fluorescence": "2.75 z-score"}
{"Sequence": "TCTATTTTCTGAATGTCTTCGTGCTAG", "log fluorescence": "1.85 z-score"}
{"data": "Study 3", "target": "Sal-like protein 4, full length isoform B (SALL4, Homo sapiens, UniProt Q9UJQ4-2, residues 1-616)", "method": "universal PBM", "molecule type": "double-stranded DNA, one strand shown", "medium": "in vitro", "concentration": "not given", "setting": "8-mer, flanks averaged, mean of replicates", "direction": "higher = stronger binding", "Target sequence (chain)": "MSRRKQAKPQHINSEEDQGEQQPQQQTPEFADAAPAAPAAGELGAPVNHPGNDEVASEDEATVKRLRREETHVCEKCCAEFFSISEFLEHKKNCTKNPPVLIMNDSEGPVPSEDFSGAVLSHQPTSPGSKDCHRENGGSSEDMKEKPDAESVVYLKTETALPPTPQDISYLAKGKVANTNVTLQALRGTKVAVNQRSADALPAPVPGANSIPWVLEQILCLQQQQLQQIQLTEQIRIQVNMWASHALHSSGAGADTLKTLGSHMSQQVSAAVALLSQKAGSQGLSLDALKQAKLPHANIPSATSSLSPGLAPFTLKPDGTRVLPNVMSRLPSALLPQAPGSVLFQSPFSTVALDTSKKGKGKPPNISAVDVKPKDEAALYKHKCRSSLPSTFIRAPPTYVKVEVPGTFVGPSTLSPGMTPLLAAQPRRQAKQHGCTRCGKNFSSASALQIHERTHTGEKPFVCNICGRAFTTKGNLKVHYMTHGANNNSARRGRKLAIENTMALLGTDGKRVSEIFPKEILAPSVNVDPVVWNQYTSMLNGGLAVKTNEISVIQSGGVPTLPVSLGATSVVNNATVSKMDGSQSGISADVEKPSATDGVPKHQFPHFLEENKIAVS"}
{"Sequence": "GATAGTAC", "E-score": 0.0559}
{"Sequence": "CAGGACGG", "E-score": -0.243}
{"Sequence": "CATGCGCC", "E-score": -0.273}
{"Sequence": "GGCGTGTA", "E-score": -0.0488}
{"Sequence": "AGTATTGG", "E-score": 0.167}
{"Sequence": "ATCTAGTC", "E-score": -0.0368}
{"Sequence": "AAACCCCT", "E-score": -0.25}
{"Sequence": "GCAAGGCA", "E-score": -0.0585}
{"Sequence": "AATGTAAG", "E-score": 0.264}
{"Sequence": "GCCTTCGC", "E-score": -0.0485}
{"Sequence": "AACGCGAC", "E-score": -0.155}
{"Sequence": "CTGATATA", "E-score": 0.3}
{"data": "Further values, each from its own experiment"}
{"Substance": "PhoQ, residues 284 288 289 292 302 303 SSYNSA", "target": "PhoP, residues 12 14 15 18 19 IQFRS (Escherichia coli, UniProt P23836)", "assay": "Sort-seq, item: YFP reporter", "test system": "E. coli", "setting": "PhoQ-PhoP variant library, together with: 10 µM Mg2+", "scale": "reference: high Mg2+ state, higher = stronger signaling", "endpoint": "fold induction", "result": 4.32}
